Published values gathered from unrelated publications.
Numbers after ± are the reported error.

COC(=O)N1c2ccc3c(nc(Cc4ccccc4)n3[C@@H]3CCC[C@@H](C(=O)O)C3)c2CC[C@@H]1C — responding TNBC AR+ xenografts (mouse, breast cancer PDX; oral, 50 mg/kg, 4 days/week, 45 days): 50%
Cc1nc(C)c(C=[N+]([O-])C(C)(C)C)nc1C — protein level increase (Western blot, measured: Akt phospho-Ser473; mouse, MPTP model; 30 mg/kg): 90%
C=C(c1ccc(C(=O)O)c(F)c1)c1cc2c(cc1C)C(C)(C)C=CC2(C)C — log2 fold change (RNA sequencing, measured: Lrrc4c mRNA; rat, brain; dose not given, 24 h, single dose; relative to: vehicle): -0.35
Nn1c(S)nnc1CCN(c1ccc(Cl)cc1)S(=O)(=O)c1ccccc1 — protection (analgesia; rat tail flick radiant heat; 200 mg/kg): 96.5%
COC(=O)[C@H](CSSC(C)(C)[C@H](NC(=O)[C@H](CCC(=O)NC[C@H](O)[C@@H](O)[C@H](O)[C@H](O)CO)NC(=O)[C@H](CCC(=O)O)NC(=O)[C@H](CCC(=O)NC[C@H](O)[C@@H](O)[C@H](O)[C@H](O)CO)NC(=O)[C@H](CCC(=O)O)NC(=O)[C@H](CCC(=O)NC[C@H](O)[C@@H](O)[C@H](O)[C@H](O)CO)NC(=O)CC[C@H](NC(=O)c1ccc(NCc2cnc3nc(N)[nH]c(=O)c3n2)cc1)C(=O)O)C(=O)O)NC(=O)CC[C@H](NC(=O)c1ccc(NCc2cnc3nc(N)nc(N)c3n2)cc1)C(=O)O — histological score decrease (measured: cartilage loss; Lewis rat, adjuvant-induced arthritis; 500 nmol/kg twice weekly × 2; direction not given): 65%
Cc1c(C)c(C)[c-](C)c1C.O=C([N-]c1ccccc1)c1ccccn1.[Cl-].[Ir+3] — yield (4-hydroxynonenal reduction; PBS/DMSO; 24 h, 37 °C, 1 mol% catalyst, with: excess sodium formate): 86%
COc1ccc(C2CC(c3ccc(C)cc3)=Nc3ccccc3S2)cc1 (stereo not drawn) — AST (SGOT) (Wistar rat, STZ-induced diabetes, serum; 20 mg/kg, 28 days): 21.8 ± 2.16 IU/L
Cc1cc(O)c(C=O)c2c1C(=O)Oc1c(CO)c(O)c3c(c1O2)C(O)OC3=O (stereo not drawn) — Intromission latency (copulatory behaviour test; rat, male, streptozotocin-induced diabetes; 10 mg/kg, day 63): 736 ± 34.5 s
CC(=O)C12NC(C)(C)CC1(C)C(=O)C1=C2c2c(c3c4n2C(C)(C)CC2=C4C4(CC(C)(C)NC(C)(C4)C2=O)CC3(C)C)C(=O)C(C)(C)N1 (single isomer, unassigned; (-)) — inhibition (acetic acid-induced writhing; mouse; intraperitoneal, 5 mg/kg, 0.5 h, writhes counted over 30 min): 79.5 ± 1.6%
CSCCNc1nc(SCCC(F)(F)F)nc2c1ncn2[C@@H]1O[C@H](COP(=O)(O)OP(=O)(O)C(Cl)(Cl)P(=O)(O)O)[C@@H](O)[C@H]1O — high residual platelet reactivity (ADP-induced platelet aggregation, light transmittance aggregometry; human patients, platelet-rich plasma; dose not given, 15 min, aggregation above 59%, with: ADP 20 µM; relative to: patients): 58%
CCc1nc(-c2ccc(-c3ccc(CCC(N)(CO)CO)cc3)cc2)co1 — Km (phosphorylation; rat whole blood; 60 min, 37 °C, up to 100 µM): 65.1 ± 11.5 µM
CC/C=C\C/C=C\C/C=C\C/C=C\C/C=C\CCCCOC(CC)C(=O)O (stereo not drawn) — hepatic bile acids (APOE*3Leiden.CETP mice, high-fat/cholesterol diet; dose not given, 20 weeks; relative to: control): decreased
CC(C)c1cnc(-c2cc(Cl)ccc2F)cc1Nc1ccncc1C(=O)NC(CO)CO — inhibition (measured: pSMAD2; 4T1, mouse, 4T1 tumour model, 4T1 tumour; dose not given): 60 to 70%
CC[C@H](C)[C@H](NC(=O)[C@H](CC(N)=O)NC(=O)[C@H](CC(N)=O)NC(=O)[C@H](CCCNC(=N)N)NC(=O)[C@H](CC(N)=O)NC(=O)[C@H](CCCNC(=N)N)NC(=O)[C@H](CCCCN)NC(=O)[C@@H](NC(=O)[C@H](CC(N)=O)NC(=O)[C@H](CCSC)NC(=O)[C@H](CC(C)C)NC(=O)[C@H](Cc1c[nH]c2ccccc12)NC(=O)[C@H](CCC(N)=O)NC(=O)[C@@H](NC(=O)[C@H](Cc1ccccc1)NC(=O)[C@H](CC(=O)O)NC(=O)[C@H](CCC(N)=O)NC(=O)[C@H](C)NC(=O)[C@H](CCCNC(=N)N)NC(=O)[C@H](CCCNC(=N)N)NC(=O)[C@H](CO)NC(=O)[C@H](CC(=O)O)NC(=O)[C@H](CC(C)C)NC(=O)[C@H](Cc1ccc(O)cc1)NC(=O)[C@H](CCCCN)NC(=O)[C@H](CO)NC(=O)[C@H](Cc1ccc(O)cc1)NC(=O)[C@H](CC(=O)O)NC(=O)[C@H](CO)NC(=O)[C@@H](NC(=O)[C@H](Cc1ccccc1)NC(=O)[C@@H](NC(=O)CNC(=O)[C@H](CCC(=O)O)NC(=O)[C@@H](CO)NC(=O)[C@@H](N)Cc1c[nH]cn1)[C@@H](C)O)[C@@H](C)O)C(C)C)[C@@H](C)O)C(=O)N[C@@H](C)C(=O)N[C@@H](CSCC(=O)NCCOCCOCCOCCOCCC(=O)O[C@H]1CC[C@@]2(C)C(=CC[C@H]3[C@@H]4CC[C@H]([C@H](C)CCCC(C)C)[C@@]4(C)CC[C@@H]32)C1)C(N)=O — cumulative food intake reduction (diet-induced obese mice; subcutaneous, 1.9 µmol/kg every other day, 14 days; relative to: vehicle): 12%
C=CC(=O)N1C[C@H](C)N(c2nc(OC[C@@]34CCCN3C[C@H](F)C4)nc3c(F)c(-c4ccc(F)c5sc(N)c(C#N)c45)c(C(F)(F)F)cc23)C[C@H]1C — IC50 (measured: pERK; mouse, MIA PaCa-2 Matrigel plug; single dose): 85 nM
C=C1C[C@@]23CC[C@H]4[C@@](C)(CCC[C@@]4(C)C(=O)O[C@@H]4O[C@H](CO)[C@@H](O)[C@H](O)[C@H]4O)[C@@H]2CC[C@]1(O[C@@H]1O[C@H](CO[C@H]2O[C@H](CO)[C@@H](O)[C@H](O)[C@H]2O)[C@@H](O)[C@H](O)[C@H]1O[C@@H]1O[C@H](CO)[C@@H](O)[C@H](O)[C@H]1O)C3 — mRNA level (qPCR, measured: Cox5b; C57BL/6N mice, high-fat diet, brown adipose tissue; drinking water, 0.2 g/L, 16 weeks): increased
O=C(/C=C\n1cnc(-c2cc(C(F)(F)F)cc(C(F)(F)F)c2)n1)N1CC(F)(F)C1 — cumulative disease score (mice, MOG35-55 EAE; oral, 75 mg/kg, 12 days, from hindlimb paralysis; relative to: vehicle, decrease): 60 ± 4.72%
COc1ccc(C2CC(c3ccc(C)cc3)=Nc3ccccc3S2)cc1OC (stereo not drawn) — AST (SGOT) (Wistar rat, STZ-induced diabetes, serum; oral, 10 mg/kg once daily, 28 days): 23.9 ± 2.11 IU/L

A few entries again:
C=CC(=O)N1C[C@H](C)N(c2nc(OC[C@@]34CCCN3C[C@H](F)C4)nc3c(F)c(-c4ccc(F)c5sc(N)c(C#N)c45)c(C(F)(F)F)cc23)C[C@H]1C — IC50 (measured: pERK; mouse, MIA PaCa-2 Matrigel plug; single dose): 85 nM
C=C1C[C@@]23CC[C@H]4[C@@](C)(CCC[C@@]4(C)C(=O)O[C@@H]4O[C@H](CO)[C@@H](O)[C@H](O)[C@H]4O)[C@@H]2CC[C@]1(O[C@@H]1O[C@H](CO[C@H]2O[C@H](CO)[C@@H](O)[C@H](O)[C@H]2O)[C@@H](O)[C@H](O)[C@H]1O[C@@H]1O[C@H](CO)[C@@H](O)[C@H](O)[C@H]1O)C3 — mRNA level (qPCR, measured: Cox5b; C57BL/6N mice, high-fat diet, brown adipose tissue; drinking water, 0.2 g/L, 16 weeks): increased
